# Results from different studies.
# Each line is one published result; not all experiments were run side by side. Numbers after ± are the reported error.
# Technique: steady-state kinetics
# B1: protein (Streptomyces coelicolor, UniProt P16544); chain MATQDSEVALVTGATSGIGLEIARRLGKEGLRVFVCARGEEGLRTTLKELREAGVEADGRTCDVRSVPEIEALVAAVVERYGPVDVLVNNAGRPGGGATAELADELWLDVVETNLTGVFRVTKQVLKAGGMLERGTGRIVNIASTGGKQGVVHAAPYSASKHGVVGFTKALGLELARTGITVNAVCPGFVETPMAASVREHYSDIWEVSTEEAFDRITARVPIGRYVQPSEVAEMVAYLIGPGAAAVTAQALNVCGGLGNY
# B2: Ma-WS/DGAT G25V (Marinobacter nauticus); chain MTPLNPTDQLFLWLEKRQQPMHVGVLQLFSFPEGAPDDYVAQLADQLRQKTEVTAPFNQRLSYRLGQPVWVEDEHLDLEHHFRFEALPTPGRIRELLSFVSAEHSHLMDRERPMWEVHLIEGLKDRQFALYTKVHHSLVDGVSAMRMATRMLSENPDEHGMPPIWDLPCLSRDRGESDGHSLWRSVTHLLGLSGRQLGTIPTVAKELLKTINQARKDPAYDSIFHAPRCMLNQKITGSRRFAAQSWCLKRIRAVCEAYGTTVNDVVTAMCAAALRTYLMNQDALPEKPLVAFVPVSLRRDDSSGGNQVGVILASLHTDVQEAGERLLKIHHGMEEAKQRYRHMSPEEIVNYTALTLAPAAFHLLTGLAPKWQTFNVVISNVPGPSRPLYWNGAKLEGMYPVSIDMDRLALNMTLTSYNDQVEFGLIGCRRTLPSLQRMLDYLEQGLAELELNAGL
# B3: protein Y93C (Thermus thermophilus, UniProt Q5SKR5); chain MSAPKPFVIGIAGGTASGKTTLAQALARTLGERVALLPMDHYYKDLGHLPLEERLRVNYDHPDAFDLALYLEHAQALLRGLPVEMPVYDFRACTRSPRRTPVRPAPVVILEGILVLYPKELRDLMDLKVFVDADADERFIRRLKRDVLERGRSLEGVVAQYLEQVKPMHLHFVEPTKRYADVIVPRGGQNPVALEMLAAKALARLARMGAA
# B4: enzyme A178R/D177A/G159A/M179S/P184R (Levilactobacillus brevis, UniProt Q03Q85); chain MKVTVVGCTHAGTFAIKQILAEHPDAEVTVYERNDVISFLSCGIALYLGGKVADPQGLFYSSPEELQKLGANVQMNHNVLAIDPDQKTVTVEDLTNHAQTTESYDKLVMTSGSWPIVPKIPGIDSDRVKLCKNWAHAQALIEDAKEAKRITVIGAGYIAAELAEAYSTTGHDVTLIARSARVMRKYFDADFTDVIEQDYRDHGVQLALGETVESFTDSATGLTIKTDKNSYETDLAILCIGFRPNTDLLKGKVDMAPNGAIITDDYMRSSNPDIFAAGDSAAVHYNPTHQNAYIPLATNAVRQGILVGKNLVKPTVKYMGTQSSSGLALYDRTIVSTGLTLAAAKQQGLNAEQVIVEDNYRPEFMPSTEPVLMSLVFDPDTHRILGGALMSKYDVSQSANTLSVCIQNENTIDDLAMVDMLFQPNFDRPFNYLNILAQAAQAKVAQSVNA
# B5: POLK (Homo sapiens, UniProt Q9UBT6); chain MGLNDNKAGMEGLDKEKINKIIMEATKGSRFYGNELKKEKQVNQRIENMMQQKAQITSQQLRKAQLQVDRFAMELEQSRNLSNTIVHIDMDAFYAAVEMRDNPELKDKPIAVGSMSMLSTSNYHARRFGVRAAMPGFIAKRLCPQLIIVPPNFDKYRAVSKEVKEILADYDPNFMAMSLDEAYLNITKHLEERQNWPEDKRRYFIKMGSSVENDNPGKEVNKLSEHERSISPLLFEESPSDVQPPGDPFQVNFEEQNNPQILQNSVVFGTSAQEVVKEIRFRIEQKTTLTASAGIAPNTMLAKVCSDKNKPNGQYQILPNRQAVMDFIKDLPIRKVSGIGKVTEKMLKALGIITCTELYQQRALLSLLFSETSWHYFLHISLGLGSTHLTRDGERKSMSVERTFSEINKAEEQYSLCQELCSELAQDLQKERLKGRTVTIKLKNVNFEVKTRASTVSSVVSTAEEIFAIAKELLKTEIDADFPHPLRLRLMGVRISSFPNEEDRKHQQ
# B6: ybiA (Escherichia coli, UniProt P30176); chain MPVRAQRIQHVMQDTIINFYSTSDDYGDFSNFAAWPIKVDGKTWPTSEHYFQAQKFLDEKYREEIRRVSSPMVAARMGRDRSKPLRKNWESVKEQVMRKALRAKFEQHAELRALLLATAPAKLVEHTENDAYWGDGGHGKGKNRLGYLLMELREQLAIEK
# B7: cyc1 F198L (Streptomyces coelicolor, UniProt Q9K499); chain MHAFPHGTTATPTAIAVPPSLRLPVIEAAFPRQLHPYWPKLQETTRTWLLEKRLMPADKVEEYADGLCYTDLMAGYYLGAPDEVLQAIADYSAWFFVWDDRHDRDIVHGRAGAWRRLRGLLHTALDSPGDHLHHEDTLVAGFADSVRRLYAFLPATWNARFARHFHTVIEAYDREFHNRTRGIVPGVEEYLELRRLTLAHWIWTDLLEPSSGCELPDAVRKHPAYRRAALLSQEFAAWYNDLCSLPKEIAGDEVHNLGISLITHHSLTLEEAIGEVRRRVEECITEFLAVERDALRFADELADGTVRGKELSGAVRANVGNMRNWFSSVYWFHHESGRYMVDSWDDRSTPPYVNNEAAGEK
# B8: FNO G29L (Thermobifida fusca, UniProt Q47RA9); chain MIMIMASKSSPHDLPDVSGLSIAVLGGTLDQGRGLARRFAMAGHEVILGSRSAERAQAVAAELGEGLPVRGMDNAGAAEAGDVVIVAVPWDGHRALLESLKDVLAGKIVVDCVNPLGFDKRGAYALPVEEGSAAEQAAAILPDSRVVAAFHHVSAVLLLDPEVEKVDLDVLVLGDDREATDVVRALAARIPGVRGVYGGRLRNAHQVEAFTANLISINRRYKAHAGIRITDI
# B9: putA E639A (Bradyrhizobium diazoefficiens, UniProt Q89E26); chain MPNIPPPFTAPYAPDDAEIAARLLPASHLSPPQEARIHRTATRLIEAIRKRDDRLGGVEDMLREFALSTKEGLALMVLAEALLRVPDARTADQFIEDKLGEGDFIHHETKSTAFLVNASAWALGLSARVIQPGETPDGTIGRLVKRLGAPAVRTATRQAMRLMGNHFVLGETIEQALERGKPRSGQKTRYSFDMLGEGARTAADARRYFDAYASAIETIGKAAGNHALPDRPGISVKLSALHPRFEAISRARVMVELVPQLLDLAQRAKAHDLNFTVDAEEADRLELSLDVIAATLADPSLKGWDGFGLAIQAYQKRASAVIDYVDALARAHDRKLMVRLVKGAYWDTEIKRAQERGLDGYPVFTRKAMTDLNYVACASKLLALRPRIFPQFATHNALTVATVLEMAEGSSGFEFQRLHGMGEALYEQLAKDHADIAYRTYAPVGSHRDLLAYLVRRLLENGANSSFVAQAADYRVPVPALLQRPADAIVRPQAAAHPRIPLPCDLFAPERRNSRGVEFGARTALDQLLTDVKAETGDLKPIADATPDQAHAAVAAARAGFAGWSRTPAGIRAAALEQAAHLLESRSAHFIALLQREGGKTLDDALSELREAADFCRYYAAQGRKLFGSETAMPGPTGASNALTMRGRGVFVAISPWNFPLAIFLGQVTAALMAGNSVVAKPAEQTPRIAREAVALLHEAGIPKSALYLVTGDGRIGAALTAHPDIAGVVFTGSTEVARSINRALAAKDGPIVPLIAETGGINAMIADATALPEQVADDVVTSAFRSAGQRCSALRLLFVQEDVADRMIEMVAGAARELKIGDPSDVATHVGPVIDVEAKQRLDAHIARMKTEARLHFAGPAPEGCFVAPHIFELTEAGQLTEEVFGPILHVVRYRPENLERVLRAIERTGYGLTLGVHSRIDDSIEAIIDRVQVGNIYVNRNMIGAVVGVQPFGGNGLSGTGPKAGGPHYLARFATEQTVTINTAAAGGNAALLAGEE
# B10: sacB Y196F/Y247F (Priestia megaterium, UniProt D5DC07); chain KGNDSKDFNNSYGISHITRDNMVKIPQQQNSDQFKVPAFDESTIKNIASAKGKNASGNTIDLDVWDSWPLQNADGTVATYHGYQIVFALAGDPKDSNDTSVYLFYKKAGDKSIDSWKNAGRVFKDSDKFVPNDPHLKNQTQEWSGSGTLTKDGKVRLFYTDYSGKQFGKQTLTTAQVNMSQPNDNTLKVDGVEDYKSIFDGDGKIYQTVQQFIDEGGFDTGDNHTLRDPHYIEDNGHKYLVFEANTGTEDGYQGEDSLYNRAYYGGNNPFFQSEKKKLLEGSNKEKASLANGALGIIELNDDYTLKKVMKPLITSNTVTDEIERANIFKKDGKWYLFTDSRGSKMTIDGIGQDDVYMLGYVSNTLTGKYKPLNDTGLVLHMDLDPNDKTFTYSHFAVPQTKGDNVVITSYMTNRGFYEDNHSTFAPSFLVNIDGSKTSVVKDRVLEQGQLTVDED
Molecule,substrate,pH,temperature,setting,together with,kcat/Km [M⁻¹ s⁻¹]
"protein (Sinorhizobium meliloti, UniProt Q92T34)",O=CC(=O)O,pH 7.5,25 °C,NaCl 150 mM,NADPH 0.4 mM,1720 ± 34
B1 (protein),O[C@@H]1CCCc2ccccc21,pH 7.4,,"phosphate 400 mM, NADPH 250 µM printed","NADP+, reverse reaction",10 ± 1
B2 (Ma-WS/DGAT G25V),CCCCCC(=O)SCCNC(=O)CCNC(=O)[C@H](O)C(C)(C)COP(=O)(O)OP(=O)(O)OC[C@H]1O[C@@H](n2cnc3c(N)ncnc32)[C@H](O)[C@@H]1OP(=O)(O)O,pH 7.5,25 °C,"NaCl 300 mM, lower limit, not saturable, apparent",1-hexanol 4 mM,30.9 ± 0.5
"BaiA2 (Clostridium scindens, UniProt P19337)",NC(=O)c1ccc[n+]([C@@H]2O[C@H](COP(=O)(O)OP(=O)(O)OC[C@H]3O[C@@H](n4cnc5c(N)ncnc54)[C@H](O)[C@@H]3O)[C@@H](O)[C@H]2O)c1,pH 8.7,37 °C,"cofactor from expression host, cofactor varied",,13200
"Tat (Mus musculus, UniProt Q8QZR1)",O=C(O)C(=O)Cc1ccccc1,pH 7,38 °C,,PLP,3000
B3 (protein Y93C),Nc1ccn([C@@H]2O[C@H](CO)[C@@H](O)[C@H]2O)c(=O)n1,pH 7.2,25 °C,KCl 100 mM,ATP 100–200 µM,9000
"Pck1 (Rattus norvegicus, UniProt P07379)",Nc1nc2c(ncn2[C@@H]2O[C@H](COP(=O)(O)OP(=O)(O)OP(=O)(O)O)[C@@H](O)[C@H]2O)c(=O)[nH]1,pH 7.5,25 °C,,"OAA, GTP",790000
B4,NC(=O)C1=CN([C@@H]2O[C@H](COP(=O)(O)OP(=O)(O)OC[C@H]3O[C@@H](n4cnc5c(N)ncnc54)[C@H](OP(=O)(O)O)[C@@H]3O)[C@@H](O)[C@H]2O)C=CC1,pH 7.5,37 °C,per site,,1.2e+07 ± 3e+06
B5 (POLK),Nc1ccn([C@H]2C[C@H](O)[C@@H](COP(=O)(O)OP(=O)(O)OP(=O)(O)O)O2)c(=O)n1,pH 7.5,23 °C,MgCl2 5 mM,G template,19000
B6 (ybiA),Nc1c(N[C@@H]2O[C@H](COP(=O)(O)O)[C@@H](O)[C@H]2O)[nH]c(=O)[nH]c1=O,pH 8,22 °C,substrate not purified,,140
B7 (cyc1 F198L),CC(C)=CCC/C(C)=C/CC/C(C)=C/CO[P@@](=O)(O)OP(=O)(O)O,pH 6.5,30 °C,,MgCl2 10 mM,1100 ± 100
B8 (FNO G29L),CCC[n+]1cccc(C(N)=O)c1,pH 8,25 °C,,F420H2 40 µM,0.33 ± 0.16
"msrA (Clostridium oremlandii, UniProt A8MI53)",CN(C)c1ccc(N=Nc2ccc(S(=O)(=O)N[C@@H](CC[S@+](C)[O-])C(=O)O)cc2)cc1,pH 7.5,37 °C,"50 mM NaCl, Km above tested range",20 mM DTT reductant,8240
B9 (putA E639A),O=C(O)[C@@H]1CCCN1,pH 8,23 °C,,,23 ± 11
B10 (sacB Y196F/Y247F),OC[C@H]1O[C@@](CO)(O[C@H]2O[C@H](CO)[C@@H](O)[C@H](O)[C@H]2O)[C@@H](O)[C@@H]1O,pH 6.9,,,,18400
"enzyme (Elizabethkingia miricola, UniProt Q47898)",CC(=O)N[C@@H]1[C@@H](O)[C@H](O)[C@@H](CO)O[C@H]1NC(=O)C[C@H](N)C(=O)O,pH 7.5,37 °C,,,160000
"Plasma amine oxidase (Bos taurus, UniProt Q29437)",CN(C)CCOc1ccc2cc(CN)ccc2c1,pH 7.2,30 °C,,,2.16e+06
"alanine aminopeptidase (Neisseria meningitidis, UniProt Q9JYV4)",NC(=O)Cc1cc(=O)oc2cc(NC(=O)[C@@H](N)CCCCOCc3ccccc3)ccc12,pH 7.5,37 °C,,,54000 ± 1000

# Some of these lines once more:
Molecule,substrate,pH,temperature,setting,together with,kcat/Km [M⁻¹ s⁻¹]
"Plasma amine oxidase (Bos taurus, UniProt Q29437)",CN(C)CCOc1ccc2cc(CN)ccc2c1,pH 7.2,30 °C,,,2.16e+06
